Measurements of several laboratories.
Lines come from different studies, so protocols differ. ± marks the error that the study gave.
Gria2/Glutamate receptor 3: Gria2/Glutamate receptor 3 (Rattus norvegicus, UniProt P19491+P19492)
Chain of UniProt P19491 (whole entry, looked up): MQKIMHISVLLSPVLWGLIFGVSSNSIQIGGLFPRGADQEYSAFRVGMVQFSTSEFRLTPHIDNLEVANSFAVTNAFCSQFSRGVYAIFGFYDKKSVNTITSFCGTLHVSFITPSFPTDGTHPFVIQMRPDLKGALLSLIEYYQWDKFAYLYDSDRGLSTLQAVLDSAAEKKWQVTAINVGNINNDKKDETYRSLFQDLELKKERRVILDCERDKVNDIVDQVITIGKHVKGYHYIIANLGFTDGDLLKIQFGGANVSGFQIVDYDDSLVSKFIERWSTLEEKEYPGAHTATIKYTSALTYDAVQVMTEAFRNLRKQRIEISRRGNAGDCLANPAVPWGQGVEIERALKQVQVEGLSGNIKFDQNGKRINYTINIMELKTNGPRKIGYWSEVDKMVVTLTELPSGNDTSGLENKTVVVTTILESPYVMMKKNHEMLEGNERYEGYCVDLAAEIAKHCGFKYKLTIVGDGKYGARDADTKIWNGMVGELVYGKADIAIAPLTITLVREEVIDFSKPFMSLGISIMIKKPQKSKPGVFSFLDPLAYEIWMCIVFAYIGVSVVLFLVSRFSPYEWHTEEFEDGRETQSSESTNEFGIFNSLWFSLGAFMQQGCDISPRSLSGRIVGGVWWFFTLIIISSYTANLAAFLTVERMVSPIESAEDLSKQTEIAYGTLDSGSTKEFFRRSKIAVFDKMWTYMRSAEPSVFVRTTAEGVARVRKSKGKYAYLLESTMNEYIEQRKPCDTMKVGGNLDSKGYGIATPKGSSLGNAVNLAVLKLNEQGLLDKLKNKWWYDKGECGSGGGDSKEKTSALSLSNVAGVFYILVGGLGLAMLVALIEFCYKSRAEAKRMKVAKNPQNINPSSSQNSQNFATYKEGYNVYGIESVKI
Chain of UniProt P19492 (whole entry, looked up): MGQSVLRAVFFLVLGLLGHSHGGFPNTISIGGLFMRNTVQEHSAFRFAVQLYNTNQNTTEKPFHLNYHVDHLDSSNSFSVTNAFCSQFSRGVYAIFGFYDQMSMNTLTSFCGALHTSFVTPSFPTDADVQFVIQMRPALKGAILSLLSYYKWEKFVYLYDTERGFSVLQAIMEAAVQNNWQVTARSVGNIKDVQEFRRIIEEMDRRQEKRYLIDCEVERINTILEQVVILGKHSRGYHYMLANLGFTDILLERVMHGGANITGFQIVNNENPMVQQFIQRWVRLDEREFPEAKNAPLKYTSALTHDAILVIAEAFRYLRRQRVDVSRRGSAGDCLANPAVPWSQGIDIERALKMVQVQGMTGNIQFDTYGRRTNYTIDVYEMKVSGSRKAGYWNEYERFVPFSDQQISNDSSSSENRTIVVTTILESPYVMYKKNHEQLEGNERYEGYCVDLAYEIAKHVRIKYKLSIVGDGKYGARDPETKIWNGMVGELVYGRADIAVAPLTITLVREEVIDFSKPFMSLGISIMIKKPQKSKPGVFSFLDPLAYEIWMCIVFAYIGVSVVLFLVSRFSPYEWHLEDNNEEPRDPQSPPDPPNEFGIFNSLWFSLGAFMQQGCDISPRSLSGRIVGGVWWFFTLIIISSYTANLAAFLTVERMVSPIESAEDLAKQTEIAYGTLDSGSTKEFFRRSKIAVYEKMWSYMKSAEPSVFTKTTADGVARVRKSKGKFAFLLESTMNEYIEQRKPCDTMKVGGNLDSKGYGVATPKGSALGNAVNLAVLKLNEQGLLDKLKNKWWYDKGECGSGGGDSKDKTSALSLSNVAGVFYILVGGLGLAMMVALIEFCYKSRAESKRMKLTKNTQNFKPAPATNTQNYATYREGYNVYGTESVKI
HDAC7: Histone deacetylase 7 (HDAC7, Homo sapiens, UniProt Q8WUI4)
Chain of UniProt Q8WUI4 (whole entry, looked up): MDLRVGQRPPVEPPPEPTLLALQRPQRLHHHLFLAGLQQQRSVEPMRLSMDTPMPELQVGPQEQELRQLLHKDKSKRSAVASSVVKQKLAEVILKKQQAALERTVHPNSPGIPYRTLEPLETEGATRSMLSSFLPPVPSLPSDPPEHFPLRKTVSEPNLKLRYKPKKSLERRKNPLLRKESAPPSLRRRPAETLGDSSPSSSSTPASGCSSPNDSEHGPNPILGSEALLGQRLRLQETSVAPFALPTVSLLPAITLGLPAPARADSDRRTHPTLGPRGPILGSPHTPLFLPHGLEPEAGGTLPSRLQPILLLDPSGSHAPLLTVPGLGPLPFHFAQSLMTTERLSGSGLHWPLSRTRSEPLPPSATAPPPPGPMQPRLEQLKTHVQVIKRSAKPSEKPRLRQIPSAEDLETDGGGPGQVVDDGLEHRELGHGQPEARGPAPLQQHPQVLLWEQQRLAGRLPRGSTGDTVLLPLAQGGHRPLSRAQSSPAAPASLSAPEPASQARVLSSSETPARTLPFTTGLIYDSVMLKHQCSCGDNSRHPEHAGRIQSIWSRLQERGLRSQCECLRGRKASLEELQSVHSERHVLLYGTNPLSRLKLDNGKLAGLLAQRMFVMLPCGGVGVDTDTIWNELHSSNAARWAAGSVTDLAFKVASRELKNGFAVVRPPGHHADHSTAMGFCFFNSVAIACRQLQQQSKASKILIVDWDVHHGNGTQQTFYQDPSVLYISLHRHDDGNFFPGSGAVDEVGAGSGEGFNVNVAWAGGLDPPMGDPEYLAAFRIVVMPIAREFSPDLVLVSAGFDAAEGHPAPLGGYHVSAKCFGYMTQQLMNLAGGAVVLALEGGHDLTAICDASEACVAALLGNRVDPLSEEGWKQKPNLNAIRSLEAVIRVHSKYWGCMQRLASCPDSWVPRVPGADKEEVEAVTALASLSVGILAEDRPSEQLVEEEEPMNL
Chain of UniProt P11309 (whole entry, looked up): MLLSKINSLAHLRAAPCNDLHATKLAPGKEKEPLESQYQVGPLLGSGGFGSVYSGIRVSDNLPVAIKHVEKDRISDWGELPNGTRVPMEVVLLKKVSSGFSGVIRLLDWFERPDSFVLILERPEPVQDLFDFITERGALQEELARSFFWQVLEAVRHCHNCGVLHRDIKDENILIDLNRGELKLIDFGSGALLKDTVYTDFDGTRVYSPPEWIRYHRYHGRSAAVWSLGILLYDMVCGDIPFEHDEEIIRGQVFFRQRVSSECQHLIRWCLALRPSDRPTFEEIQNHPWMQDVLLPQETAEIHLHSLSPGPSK
Chain of UniProt P23443 (whole entry, looked up): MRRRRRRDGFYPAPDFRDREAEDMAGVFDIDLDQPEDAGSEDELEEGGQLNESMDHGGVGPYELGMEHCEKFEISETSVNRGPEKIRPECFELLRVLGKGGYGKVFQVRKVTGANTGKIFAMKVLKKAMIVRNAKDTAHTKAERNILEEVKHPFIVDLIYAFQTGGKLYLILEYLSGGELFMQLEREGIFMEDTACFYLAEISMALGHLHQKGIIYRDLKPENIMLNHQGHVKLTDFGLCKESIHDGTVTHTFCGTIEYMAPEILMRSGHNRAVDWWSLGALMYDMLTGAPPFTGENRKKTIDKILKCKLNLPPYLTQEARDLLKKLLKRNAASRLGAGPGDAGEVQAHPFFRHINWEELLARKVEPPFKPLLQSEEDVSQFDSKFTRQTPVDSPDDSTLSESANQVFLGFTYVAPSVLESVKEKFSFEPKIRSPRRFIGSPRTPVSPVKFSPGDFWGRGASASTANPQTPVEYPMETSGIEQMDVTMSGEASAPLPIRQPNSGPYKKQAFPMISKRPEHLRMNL
Chain of UniProt P23141 (whole entry, looked up): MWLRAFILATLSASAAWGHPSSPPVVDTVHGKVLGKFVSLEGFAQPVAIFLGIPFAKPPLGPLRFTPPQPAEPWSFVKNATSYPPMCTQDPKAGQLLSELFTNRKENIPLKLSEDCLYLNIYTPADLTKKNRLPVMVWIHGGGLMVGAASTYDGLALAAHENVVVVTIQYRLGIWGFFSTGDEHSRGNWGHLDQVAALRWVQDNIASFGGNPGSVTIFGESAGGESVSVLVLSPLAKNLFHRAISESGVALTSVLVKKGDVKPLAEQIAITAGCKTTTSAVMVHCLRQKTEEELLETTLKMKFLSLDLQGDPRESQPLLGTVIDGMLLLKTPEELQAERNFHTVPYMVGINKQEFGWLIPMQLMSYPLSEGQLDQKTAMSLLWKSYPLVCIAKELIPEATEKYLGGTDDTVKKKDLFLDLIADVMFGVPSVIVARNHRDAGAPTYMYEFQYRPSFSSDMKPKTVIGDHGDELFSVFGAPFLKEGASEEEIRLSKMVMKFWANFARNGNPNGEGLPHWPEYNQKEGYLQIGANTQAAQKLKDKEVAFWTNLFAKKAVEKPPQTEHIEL
Chain of UniProt P45984 (whole entry, looked up): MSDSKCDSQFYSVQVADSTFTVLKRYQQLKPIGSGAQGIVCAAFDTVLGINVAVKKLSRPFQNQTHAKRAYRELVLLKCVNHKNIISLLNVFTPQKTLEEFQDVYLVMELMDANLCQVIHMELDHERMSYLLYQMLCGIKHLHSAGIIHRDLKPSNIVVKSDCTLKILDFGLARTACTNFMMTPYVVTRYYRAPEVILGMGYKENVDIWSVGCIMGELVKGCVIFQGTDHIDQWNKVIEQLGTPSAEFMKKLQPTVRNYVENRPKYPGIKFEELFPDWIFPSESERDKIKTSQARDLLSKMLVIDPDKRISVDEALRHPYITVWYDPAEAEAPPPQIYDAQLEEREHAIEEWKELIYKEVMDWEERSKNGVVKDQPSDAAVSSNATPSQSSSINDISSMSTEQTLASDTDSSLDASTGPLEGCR
Chain of UniProt P14902 (whole entry, looked up): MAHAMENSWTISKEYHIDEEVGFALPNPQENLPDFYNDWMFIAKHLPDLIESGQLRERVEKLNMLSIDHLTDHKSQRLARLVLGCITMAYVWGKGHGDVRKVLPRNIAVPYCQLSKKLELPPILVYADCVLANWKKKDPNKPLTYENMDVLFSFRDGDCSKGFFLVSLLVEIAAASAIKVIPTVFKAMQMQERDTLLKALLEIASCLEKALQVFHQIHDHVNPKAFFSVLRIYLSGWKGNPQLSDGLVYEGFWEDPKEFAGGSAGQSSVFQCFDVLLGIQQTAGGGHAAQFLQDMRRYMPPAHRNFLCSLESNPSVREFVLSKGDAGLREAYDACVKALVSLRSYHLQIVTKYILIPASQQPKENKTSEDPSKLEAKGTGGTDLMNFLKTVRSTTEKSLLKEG

`O=C(c1ccc(-c2ccc3ncnc(Nc4ccc(OCc5cccc(F)c5)c(Cl)c4)c3c2)cc1)N1CCCCC1` gave an EC50 of 2.9 µM (Leishmania major; intracellular amastigote growth, luciferase; RAW264.7 macrophages).
`O=C1/C(=N\c2ccc(Cl)cc2Br)c2ccccc2N1Cc1ccccc1` (mixture of isomers) gave an IC50 of 0.133 µM (Phosphatidylinositol 4,5-bisphosphate 3-kinase catalytic subunit alpha isoform (PIK3CA, Homo sapiens, UniProt P42336); enzyme activity, inhibitor, ADP detection).
`COc1cc2c(c(OC)c1OC)-c1c(cc(OC)c(OC)c1OC)C[C@H](C)[C@H](C)C2` has an IC50 of 4 µM (Liver carboxylesterase 1 (CES1, Homo sapiens, UniProt P23141); enzyme activity, inhibitor).
With `C=CC(=O)N1C[C@H](C)N(c2nc(OC[C@@]34CCCN3C[C@H](F)C4)nc3c(F)c(-c4ccc(F)c5sc(N)c(C#N)c45)c(C(F)(F)F)cc23)C[C@H]1C` the IC50 was 6.8 ± 1.3 µM (GTPase KRas, GppNHp; with RAF1 RBD (KRAS, Homo sapiens, UniProt P01116, G12V)).
For `O=C(O)Cc1cc2c(cc1C(=O)c1cccc(Br)c1)OCO2`, the IC50 was 4.58 µM (Gria2/Glutamate receptor 3; ion current, patch clamp).
With `CCn1nc(Cl)c2c1-c1cnc(N)c(c1)O[C@H](C)c1cc(F)ccc1-c1nn(C)cc1C2` the IC50 was 0.46 µM (Macrophage colony-stimulating factor 1 receptor (CSF1R, Homo sapiens, UniProt P07333); enzyme activity, inhibitor, radiometric).
For `Cc1oc(C)c(-c2ccc(N(CC(C)C)CC(C)C)c(NC(=O)Nc3cccc(B4OC(C)(C)C(C)(C)O4)c3)c2)c1C(=O)O`, the IC50 was 39 ± 14 µM (Indoleamine 2,3-dioxygenase 1 (IDO1, Homo sapiens, UniProt P14902); enzyme activity, inhibitor, recombinant enzyme, item: kynurenine; 20 min, 2% DMSO, with: L-tryptophan).
For `Cc1cc(NC2CCN(C)CC2)ccc1-c1cc2c(N3CCC[C@H](C(=O)NCc4ccc(OC(F)(F)F)cc4)C3)ncnc2[nH]1`, the IC50 was over 8 µM (Mitogen-activated protein kinase 9 (MAPK9, Homo sapiens, UniProt P45984); enzyme activity, inhibitor, mobility shift).
`C#CCCn1nc(C)c2c(Cl)c(C(=O)NCC3CC(C)=NO3)cnc21` (centres unmarked) has an IC50 of over 250 µM (60 kDa heat shock protein, mitochondrial (Homo sapiens, UniProt P10809); ATPase activity, inhibitor).
With `Fc1cccc(COc2ccc(Nc3ncnc4ccc(-c5ccccc5)cc34)cc2Cl)c1` the EC50 was over 15 µM (Leishmania major; intracellular amastigote growth, luciferase; RAW264.7 macrophages).
With `O=C1CCC(N2C(=O)c3ccc(N4CCC(C(=O)N5CCC(CCN6CCC(CNC(=O)c7cccc(-c8noc(C(F)(F)F)n8)c7)(c7nc(-c8ccccc8)cs7)CC6)CC5)CC4)cc3C2=O)C(=O)N1` (centres unmarked) the IC50 was 2.41 µM (HDAC7; enzyme activity, inhibitor).
With `CCN(CC)CC(=O)Nc1cccc(-n2cc(-c3ccc4ccc(-c5cn(-c6cccc(NC(=O)CN(CC)CC)c6)nn5)cc4c3)nn2)c1` the IC50 was over 10 µM (Ribosomal protein S6 kinase beta-1 (RPS6KB1, Homo sapiens, UniProt P23443); enzyme activity, inhibitor).
`Cc1nn(-c2cccc(N)c2)c(=O)c2cnc(Nc3ccc(N4CCNCC4)cc3)nc12` gave an IC50 of 1.32 µM (Serine/threonine-protein kinase B-raf (BRAF, Homo sapiens, UniProt P15056, V600E); enzyme activity, inhibitor).
For `CC(C)(C)OC(=O)N1CCN(c2ccc3c(O)c(C(=O)NCc4ccc(C#N)nc4)ncc3n2)CC1`, the IC50 was over 10 µM (Lysine-specific demethylase 4E (KDM4E, Homo sapiens, UniProt B2RXH2); enzyme activity, inhibitor, AlphaScreen).
With `CC[C@H](C)[C@@H]1NC(=O)[C@H](Cc2ccccc2C(F)(F)F)NC(=O)CCSCc2cccc(n2)CSCCCNC(=O)[C@H](CCCCCC(=O)O)NC1=O` the IC50 was over 30 µM (HDAC7; enzyme activity, inhibitor, fluorogenic).
With `COC(=O)Cc1cc2c(cc1C(=O)c1ccccc1I)OCO2` the IC50 was 6.03 µM (Gria2/Glutamate receptor 3; ion current, antagonist, patch clamp).
With `Fc1cncc(-c2ccc3[nH]c4ncnc(N[C@H]5CC[C@H](N6CCOCC6)CC5)c4c3c2)c1` the IC50 was 0.012 µM (Serine/threonine-protein kinase pim-1 (PIM1, Homo sapiens, UniProt P11309); enzyme activity, inhibitor, radiometric).
